Experimental data pooled from the literature.
Parts stem from different laboratories: compare values within a part only. “And” joins repeats or separate records; there may be more than shown.
Sequence of UniProt P46098 (whole entry, looked up): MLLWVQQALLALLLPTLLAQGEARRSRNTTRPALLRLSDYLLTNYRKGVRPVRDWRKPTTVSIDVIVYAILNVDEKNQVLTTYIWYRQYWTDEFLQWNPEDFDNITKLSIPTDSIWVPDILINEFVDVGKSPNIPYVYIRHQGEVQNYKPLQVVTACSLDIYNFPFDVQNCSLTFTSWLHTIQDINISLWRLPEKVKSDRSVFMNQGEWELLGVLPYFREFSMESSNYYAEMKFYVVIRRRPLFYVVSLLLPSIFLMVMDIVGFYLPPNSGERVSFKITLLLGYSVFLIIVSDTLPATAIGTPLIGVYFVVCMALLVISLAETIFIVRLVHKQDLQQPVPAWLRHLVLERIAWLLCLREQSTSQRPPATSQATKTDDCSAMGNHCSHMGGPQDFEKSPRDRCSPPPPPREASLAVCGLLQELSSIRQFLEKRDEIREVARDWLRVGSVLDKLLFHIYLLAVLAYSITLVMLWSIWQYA

Sample 1
Target: Beta-1 adrenergic receptor (ADRB1, Homo sapiens, UniProt P08588)
Sequence of UniProt P08588 (whole entry, looked up): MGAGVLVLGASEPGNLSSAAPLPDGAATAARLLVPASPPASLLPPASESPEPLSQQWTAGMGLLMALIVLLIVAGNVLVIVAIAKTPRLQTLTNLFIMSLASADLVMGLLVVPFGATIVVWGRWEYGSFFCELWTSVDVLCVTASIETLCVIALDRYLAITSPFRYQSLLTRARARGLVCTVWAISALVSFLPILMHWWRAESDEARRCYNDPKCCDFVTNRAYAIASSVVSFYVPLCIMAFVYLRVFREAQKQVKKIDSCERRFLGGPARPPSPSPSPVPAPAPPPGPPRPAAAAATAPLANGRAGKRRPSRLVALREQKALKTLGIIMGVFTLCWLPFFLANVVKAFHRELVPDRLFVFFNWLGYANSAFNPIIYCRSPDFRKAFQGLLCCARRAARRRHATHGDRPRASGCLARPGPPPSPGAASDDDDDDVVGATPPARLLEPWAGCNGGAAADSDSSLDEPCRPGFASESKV
Mode: agonist
Measurement: EC50
O=C(Cc1ccccc1)Nc1ccc([C@@H](O)[C@H]2COCC(=O)N2Cc2ccc(C(F)(F)F)cc2)cc1: ≥ 100 µM
CN(Cc1ccc(F)cc1)c1ccc2ncc(Nc3cccc(O)c3)n2n1: ≥ 100 µM
O=C(Nc1ccc2ccccc2n1)c1ccccc1OCc1cscn1: ≥ 100 µM
COc1ccc(CNCC(O)COc2ccc3[nH]c(=O)ccc3c2)cc1OC (centres unmarked): ≥ 100 µM
O=C1c2c(nc(COc3cccc(N4CCOCC4)c3)n2Cc2ccccc2)NCCN1CC1CC1: ≥ 100 µM
O=C(Nc1cccc(Cl)c1)N1CCN(c2cc(N3CCOCC3)cnn2)CC1: ≥ 100 µM

Sample 2
Target: Ephrin type-A receptor 4 (EPHA4, Homo sapiens, UniProt P54764)
Sequence of UniProt P54764 (whole entry, looked up): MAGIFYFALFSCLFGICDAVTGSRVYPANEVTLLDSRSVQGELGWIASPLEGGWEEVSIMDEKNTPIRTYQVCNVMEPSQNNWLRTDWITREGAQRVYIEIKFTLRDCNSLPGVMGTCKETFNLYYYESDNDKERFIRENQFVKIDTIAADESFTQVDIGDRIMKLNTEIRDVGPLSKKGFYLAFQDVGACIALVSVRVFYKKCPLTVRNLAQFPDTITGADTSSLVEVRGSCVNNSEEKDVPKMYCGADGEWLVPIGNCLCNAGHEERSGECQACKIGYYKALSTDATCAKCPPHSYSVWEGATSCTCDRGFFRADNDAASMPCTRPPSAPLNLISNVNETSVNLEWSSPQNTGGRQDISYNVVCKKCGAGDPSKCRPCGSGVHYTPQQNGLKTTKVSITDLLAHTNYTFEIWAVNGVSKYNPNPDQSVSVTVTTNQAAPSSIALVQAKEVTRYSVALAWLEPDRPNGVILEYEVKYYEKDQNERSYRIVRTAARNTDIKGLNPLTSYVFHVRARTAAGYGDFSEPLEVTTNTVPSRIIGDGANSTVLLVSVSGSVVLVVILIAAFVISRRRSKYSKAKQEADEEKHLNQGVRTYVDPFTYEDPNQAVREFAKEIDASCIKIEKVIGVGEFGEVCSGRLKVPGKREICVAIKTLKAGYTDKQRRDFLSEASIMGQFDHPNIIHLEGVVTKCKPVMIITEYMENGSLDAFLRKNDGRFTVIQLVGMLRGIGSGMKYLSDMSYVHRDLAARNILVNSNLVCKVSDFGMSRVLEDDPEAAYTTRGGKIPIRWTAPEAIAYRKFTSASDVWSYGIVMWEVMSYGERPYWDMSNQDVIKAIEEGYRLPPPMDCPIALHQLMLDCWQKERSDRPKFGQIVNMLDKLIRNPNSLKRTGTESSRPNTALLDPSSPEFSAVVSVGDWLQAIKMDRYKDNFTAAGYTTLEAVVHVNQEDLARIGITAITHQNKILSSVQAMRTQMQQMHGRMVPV
Observed: enzyme activity
Mode: inhibitor
Tested at: 0.5 µM
Reference: control
Measurement: remaining activity
CC(C)[C@H](CO)Nc1nc(Nc2cc(N)cc(Cl)c2)c2ncn(C(C)C)c2n1: 61.4%
Cc1nc(-c2ccccc2)c(-c2ccncc2)o1: 112%
O=C(Nc1cccc(Nc2cc(Nc3cccc(C(F)(F)F)c3)ncn2)c1)C1CC1: 96.5%
O=C1NC(=O)C(c2cn(CCCn3ccnc3)c3ccccc23)=C1Nc1ccccc1: 111%
Cn1sc(=O)n(Cc2ccccc2)c1=O: 110%
Cn1c2ccccc2c2c3c(c4c5ccccc5n(CCC#N)c4c21)CNC3=O: 90.4%
CN(C)c1ccc(C=C2C(=O)Nc3ccccc32)cc1: 95.2%
OCC(O)CCON=C1C(c2c(O)[nH]c3ccccc23)=Nc2ccccc21 (centres unmarked): 77.9%
N#CC(C#N)=C(N)/C(C#N)=C/c1ccc(O)cc1: 96%
Cc1cccc(-c2[nH]c(C(C)(C)C)nc2-c2ccc3c(c2)OCO3)n1: 97.3%
Oc1ccc(-c2nc(-c3ccncc3)c(-c3ccc(F)cc3)[nH]2)cc1: 96.2%
NCCNc1ncc(C(N)=O)c(Nc2cccc(C(F)(F)F)c2)n1: 101%
C#Cc1cccc(Nc2ncnc3cc(OCCOC)c(OCCOC)cc23)c1: 98.4%
O=S(=O)(c1cccc2cnccc12)N1CCCNCC1: 98.5%
CCOC(=O)c1c(C)[nH]c(/C=C2\C(=O)Nc3ccccc32)c1C: 80.3%
O=C1NC(=O)C(c2cn(CCCO)c3ncccc23)=C1c1cnccn1: 99.5%

Sample 3
Cell line: mouse MPNST tumor cells
Method: high-content nuclear imaging
Item: cell number
Tested at: 10 µM
Time: 12 h
Setting: mean of 2 replicates
Reference: plate mean
Reading: higher = more cells
Measurement: nuclei count
O=C(O)c1ccc(C(=O)N[C@@H](c2ccc(OC(F)(F)F)c(F)c2)c2ncccc2F)nc1: 0.0267 z-score
CC(C)(C)CC(=O)Nc1c(F)cc(C(=O)N=c2sccn2COP(=O)(O)O)cc1F: 1.01 z-score
C#C[C@]1(O)CC[C@H]2[C@@H]3CCC4=CCCC[C@@H]4[C@H]3CC[C@@]21C: 1.73 z-score
CC(=O)Nc1c(I)c(NC(C)=O)c(I)c(C(=O)O)c1I: -0.272 z-score
Cc1ccccc1C(=O)Nc1ccc(C(=O)N2CCCC(O)c3cc(Cl)ccc32)c(C)c1 (centres unmarked): 6.37 z-score and 4.65 z-score and 1.7 z-score
CC1CCN(CC[C@H]2CCCN2S(=O)(=O)c2cccc(O)c2)CC1: 0.706 z-score

Sample 4
Species: mouse
Matrix: microsomes or S9
Tested at: 2 µM
Time: 0.5 h
Measurement: remaining compound
OCCN(CC(O)c1ccc(F)c(F)c1)c1ccccc1 (centres unmarked): 6.94%
CCN(CC)S(=O)(=O)c1ccc(C)c(N2C(=O)CC(C#N)=C2N)c1: 5.05%
COc1ccc(C)cc1NC(=O)c1cc(S(=O)(=O)N2CCOCC2)cn1C: 17.9%
O=C(NCCN1CCCCC1)c1cc2ccccc2s1: 15.6%
CCc1cc2c3c([nH]c2cc1S(=O)(=O)N(Cc1ccccc1)C(C)C)CCCC3=O: > 99%
O=S1(=O)CCN2N=C(c3ccccc3)C(c3ccccc3)=NC2=N1: 88.1%

Single results of other studies
Cc1nc(N2CC[C@@H](O)C2)ncc1-c1cc(C(F)(F)F)cc2[nH]ncc12
inhibition (5-hydroxytryptamine receptor 3A (HTR3A, Homo sapiens, UniProt P46098); binding, radioligand binding; 10 µM): 6.06%
